Measured values from different studies.
Numbered parts are unrelated; each lists some results of a single study. Values joined by “and” are separate records of one study, mostly repeats; a detail may differ. Substitutions count along the parent as printed.
UniProt P29376, sequence (whole entry, looked up): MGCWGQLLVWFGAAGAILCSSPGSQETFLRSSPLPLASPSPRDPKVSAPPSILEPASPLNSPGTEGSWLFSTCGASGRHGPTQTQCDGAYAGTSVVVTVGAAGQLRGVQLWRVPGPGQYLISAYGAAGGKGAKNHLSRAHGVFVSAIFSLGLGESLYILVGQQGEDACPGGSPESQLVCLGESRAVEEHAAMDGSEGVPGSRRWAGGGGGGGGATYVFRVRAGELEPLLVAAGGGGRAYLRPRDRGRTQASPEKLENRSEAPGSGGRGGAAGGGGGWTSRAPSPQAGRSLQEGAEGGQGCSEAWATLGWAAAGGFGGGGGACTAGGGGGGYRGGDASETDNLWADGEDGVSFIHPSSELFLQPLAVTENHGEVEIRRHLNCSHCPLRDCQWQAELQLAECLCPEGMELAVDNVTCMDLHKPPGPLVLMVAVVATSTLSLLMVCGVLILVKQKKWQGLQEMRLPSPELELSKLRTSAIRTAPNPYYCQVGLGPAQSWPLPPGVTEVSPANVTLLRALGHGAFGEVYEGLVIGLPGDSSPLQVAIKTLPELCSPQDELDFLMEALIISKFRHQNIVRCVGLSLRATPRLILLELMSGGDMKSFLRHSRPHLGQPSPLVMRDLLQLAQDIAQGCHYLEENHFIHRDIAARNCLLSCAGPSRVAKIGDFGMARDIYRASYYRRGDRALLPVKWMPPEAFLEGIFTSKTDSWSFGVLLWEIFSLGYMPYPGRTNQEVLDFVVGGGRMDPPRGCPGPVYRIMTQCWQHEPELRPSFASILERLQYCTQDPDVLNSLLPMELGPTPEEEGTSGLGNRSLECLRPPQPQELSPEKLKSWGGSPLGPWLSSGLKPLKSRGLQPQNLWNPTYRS
UniProt P28566, sequence (whole entry, looked up): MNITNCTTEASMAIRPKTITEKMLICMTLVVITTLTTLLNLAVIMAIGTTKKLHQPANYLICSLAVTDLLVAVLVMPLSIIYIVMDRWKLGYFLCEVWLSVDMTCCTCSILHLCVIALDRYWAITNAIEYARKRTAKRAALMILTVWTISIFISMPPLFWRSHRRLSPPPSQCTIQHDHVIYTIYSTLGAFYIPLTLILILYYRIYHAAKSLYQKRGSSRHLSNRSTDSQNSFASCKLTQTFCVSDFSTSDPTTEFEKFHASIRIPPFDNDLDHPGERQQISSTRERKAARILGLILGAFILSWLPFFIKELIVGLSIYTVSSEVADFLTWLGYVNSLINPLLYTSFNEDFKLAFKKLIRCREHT
UniProt P28223, sequence (whole entry, looked up): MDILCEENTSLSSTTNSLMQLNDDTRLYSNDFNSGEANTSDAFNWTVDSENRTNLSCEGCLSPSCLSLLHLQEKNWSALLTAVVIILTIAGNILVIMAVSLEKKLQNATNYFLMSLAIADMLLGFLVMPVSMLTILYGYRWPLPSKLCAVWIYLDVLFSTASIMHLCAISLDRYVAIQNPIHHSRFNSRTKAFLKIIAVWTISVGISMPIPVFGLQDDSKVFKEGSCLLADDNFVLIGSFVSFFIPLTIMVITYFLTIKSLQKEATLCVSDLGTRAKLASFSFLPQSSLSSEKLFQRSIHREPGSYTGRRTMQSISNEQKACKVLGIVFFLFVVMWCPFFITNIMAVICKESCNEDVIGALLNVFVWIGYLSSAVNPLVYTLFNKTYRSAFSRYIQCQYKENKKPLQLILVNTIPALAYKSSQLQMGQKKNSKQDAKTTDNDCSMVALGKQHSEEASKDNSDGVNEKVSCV

Block 1
Target: CCNE2, cyclin fold, Cln2 fusion (human)
Method: yeast growth competition, sequencing
Medium: yeast
Notes: strong parent motif
Baseline: not given
Reading: higher = stronger binding
Measurement: normalised enrichment score
Starting sequence: viral docking peptide; TSVRRALFTGGSD
L7P: 0.221
L7F: 0.22
L7Y: 0.663
S2E: 2.16
T9W: 2.2
L7S: -0.28
S2N: 4.04
T9I: 3.43

Block 2
SMILES: O=C1CCC(N2Cc3c(ccc4c3OCC43CCN(Cc4ccccc4)CC3)C2=O)C(=O)N1 (stereo not drawn)
Medium: plasma
Measurement: plasma concentration
male Sprague Dawley rats; intravenous, 1 mg/kg, 0.083 h: 368 ng/mL
Sprague Dawley rat, male; intravenous, 1 mg/kg, 0.5 h: 212 ng/mL and 278 ng/mL
ICR mouse, male; oral, 3 mg/kg, 0.5 h: 501 ng/mL and 272 ng/mL
male Sprague Dawley rats; oral, 3 mg/kg, 0.25 h: 33.8 ng/mL
rat; intravenous, 1 mg/kg, 24 h: not detected
Sprague Dawley rat, male; intravenous, 1 mg/kg, 2 h: 101 ng/mL and 118 ng/mL

Other studies, line by line
CCOC(=O)c1cc2cc(-c3cc(C(=O)NCc4ccc(C(=O)O)cc4)nn3C)ccc2[nH]1  inhibition (5-hydroxytryptamine receptor 2A (HTR2A, Homo sapiens, UniProt P28223); binding, radioligand binding; 10 µM): 19.1%
Cc1nc(Nc2ncc(C(=O)Nc3c(C)cccc3Cl)s2)cc(N2CCN(CCO)CC2)n1  inhibition (Leukocyte tyrosine kinase receptor (LTK, Homo sapiens, UniProt P29376); 10 µM): < 50%
Cc1cc(NC(=O)c2cccc(S(F)(F)(F)(F)F)c2)cc(-n2ccn3nc(-c4cccnc4)cc23)c1  healthy cells (U2OS, HEK-293T and MRC9; 10-fold recommended concentration, 24 h): < 50%
N#CC1(c2ccccn2)CCN(Cc2cc(C(=O)O)c(=O)n3ccccc23)CC1  inhibition (5-hydroxytryptamine receptor 1E (HTR1E, Homo sapiens, UniProt P28566); cell-free assay; 10 µM): -10.1%

For quick reference, copied from above (block 1):
S2N: 4.04
